# Assay results from different studies.
# Organism: Staphylococcus aureus
Compound,assay,test system,setting,scale,MIC
C=CCO[C@H]1[C@H](O)[C@@H](N)[C@@H](O[C@H]2[C@H](O[C@@H]3O[C@H](CO)[C@@H](O[C@H]4O[C@@H](CN)[C@@H](O)[C@H](O)[C@H]4N)[C@H]3O)[C@@H](O)[C@H](N)C[C@@H]2N)O[C@@H]1CO,broth microdilution,MRSA isolate AG 039,,,16 µg/mL
Cc1cc(/C=C2\Sc3ccccc3N2CCCN2CCCC2)c2ccccc2[n+]1C,"microbial growth, broth dilution",ATCC43300 MRSA,,,32 µg/mL
CC(C)c1ccc2c(c1)CCC1C(C)(CN(CC(O)C[N+](C)(C)C)CC(O)C[N+](C)(C)C)CCCC21C (stereo not shown),"microbial growth, broth dilution",ATCC29213,16 h,,31.3 µg/mL
CNC(CC(C)C)C(=O)NC1C(=O)NC(CC(N)=O)C(=O)NC2C(=O)NC3C(=O)NC(C(=O)NC(C(=O)O)c4cc(O)cc(O)c4-c4cc3ccc4O)C(O)c3ccc(c(Cl)c3)Oc3cc2cc(c3OC2OC(CO)C(O)C(O)C2OC2CC(C)(NC(=O)CCCC[N+]3(C)CCOCC3)C(O)C(C)O2)Oc2ccc(cc2Cl)C1O (stereo not shown),agar dilution,MRSA clinical isolate MRSA4,,,256 µg/mL
CN(C)c1cc(CNCc2ccc(O)cc2)c(O)c2c1C[C@H]1C[C@H]3[C@H](N(C)C)C(O)=C(C(N)=O)C(=O)[C@@]3(O)C(O)=C1C2=O,,"RN4250, Tet K efflux",,,4 µg/mL
CCN(CC)CCCN1/C(=C/c2cc(C)[n+](C)c3ccccc23)Sc2ccccc21,"microbial growth, broth dilution",ATCC29213,,,2 µg/mL
CN(Cc1cc(N(C)C)c2c(c1O)C(=O)C1=C(O)[C@]3(O)C(=O)C(C(N)=O)=C(O)[C@@H](N(C)C)[C@@H]3C[C@@H]1C2)CC(C)(C)C,"microbial growth, broth dilution",,,,0.5 µg/mL
CCn1cc(/C=C/c2sc3ccccc3[n+]2CC)c2ccccc21,,1466,,,1 µg/mL
CCCCCCCCCc1nc2ccccc2c(=O)n1N,broth microdilution,RN6390B,,,> 100 µM
NC(=O)C1COC(=O)N1/N=C/c1ccc([N+](=O)[O-])o1 (stereo not shown),"microbial growth, broth dilution",ATCC29213,18 h,,25 µg/mL
CC(C)C[C@H](NC(=O)[C@H](CC(N)=O)NC(=O)[C@H](CCCNC(=N)N)NC(=O)[C@@H](CC(C)C)NC(=O)[C@H](Cc1ccc(-c2ccccc2)cc1)NC(=O)[C@H](CC(=O)O)NC(=O)[C@H](CCCCN)NC(=O)[C@@H](CC(C)C)NC(=O)[C@H](CCCNC(=N)N)NC(=O)[C@H](CCC(N)=O)NC(=O)[C@@H](NC(=O)[C@@H](CC(C)C)NC(=O)[C@H](CCCNC(=N)N)NC(=O)[C@H](CCCCN)NC(=O)[C@H](Cc1ccc(-c2ccccc2)cc1)NC(=O)CN)C(C)C)C(=O)N[C@H](C(N)=O)C(C)C,,USA300 LAC,"overnight, chymotrypsin pretreated",,4 µM
Oc1c(Br)c(Cl)c(Br)c2nc3c(C(F)(F)F)cc(C(F)(F)F)cc3nc12,broth microdilution,MRSA 44,,,0.78 µM
CC(C)CCCCCCCCC/C=C/C(=O)N[C@@H](CC(=O)O)C(=O)N[C@H]1CNC(=O)[C@@H]2CCCN2C(=O)[C@H](C(C)C)NC(=O)[C@@H]([C@@H](C)O)NC(=O)CNC(=O)[C@H](CC(=O)O)NC(=O)CNC(=O)[C@H](CC(=O)O)NC(=O)CNC(=O)[C@H]2CCCCN2C1=O,,MRSA USA300,with: Ca2+ 1 mM,,8 µg/mL
NCCn1c(CCCc2ccccc2)nc2cc(Cl)ccc2c1=O,broth microdilution,RN6390B,,,100 µM
Cc1cc([N+](=O)[O-])ccc1NC(=O)CSc1nc2ccccc2c(=O)n1-c1ccc(S(N)(=O)=O)cc1,,methicillin-resistant,"24 h, 37 °C",,5 µg/mL
CC[C@H](C)[C@H](N)C1=N[C@H](C(=O)N[C@@H](CC(C)C)C(=O)N[C@H](CCC(=O)O)C(=O)N[C@H](C(=O)N[C@H]2CCCCNC(=O)[C@H](CC(N)=O)NC(=O)[C@@H](CC(=O)O)NC(=O)[C@H](Cc3c[nH]cn3)NC(=O)[C@@H](Cc3ccccc3)NC(=O)[C@H]([C@@H](C)CC)NC(=O)[C@@H](CCCN)NC2=O)[C@@H](C)CC)CS1,,"ATCC 29213 MSSA, LB broth","18 h, 37 °C, with: 0.3 mM ZnSO4",,2 µg/mL
CCOC1(C)CC2C=CC3C(C)C=CC=CC(C)OC(=O)C(C)C(=O)C(Cl)(Cl)C(=O)C3C2C(C)C1O (stereo not shown),"microbial growth, broth dilution",NEWMAN,,,2 to 4 µg/mL
CN[C@H](CC(C)C)C(=O)N[C@H]1C(=O)N[C@@H](CC(N)=O)C(=O)N[C@H]2C(=O)N[C@H]3C(=O)N[C@H](C(=O)N[C@H](C(=O)O)c4cc(O)cc(O)c4-c4cc3ccc4O)[C@H](O)c3ccc(c(Cl)c3)Oc3cc2cc(c3O[C@@H]2O[C@H](CO)[C@@H](O)[C@H](O)[C@H]2O[C@H]2C[C@](C)(N)[C@H](O)[C@H](C)O2)Oc2ccc(cc2Cl)[C@H]1O,"microbial growth, broth dilution",NCTC8325,20 h,,1 µg/mL
CC[P+](CC)(CC)[Au-][S]c1ccc(OC)cc1,broth microdilution,JE2 (USA300),,,0.02 µM
CN(C)c1cc(CN2CCCCC2)c(O)c2c1C[C@H]1C[C@H]3[C@H](N(C)C)C(O)=C(C(N)=O)C(=O)[C@@]3(O)C(O)=C1C2=O,"microbial growth, broth dilution",,,,0.125 µg/mL
COc1cc(Cc2cnc(N)nc2N)cc(/C=C/C(=O)N2N=Cc3ccccc3C2c2ccccc2)c1OC (stereo not shown),"microbial growth, broth dilution",ATCC29213,pH 7,,0.125 to 0.25 µg/mL
N#Cc1ccccc1Oc1ccc(Cl)cc1O,"microbial growth, broth dilution",,,,8 µM
CN(C)c1cc(CNCc2ccccc2)c(O)c2c1C[C@H]1C[C@H]3[C@H](N(C)C)C(O)=C(C(N)=O)C(=O)[C@@]3(O)C(O)=C1C2=O,microbial growth,MRSA,,,0.25 µg/mL
CN1/C(=C/C=C/c2cc(-c3ccccc3)cc(-c3ccccc3)[o+]2)C(C)(C)c2ccccc21,broth dilution,"USA300, MRSA",,,0.5 µg/mL
CCCCCCN1C(=O)/C(=N\NC(=N)N)c2cc(C)ccc21,"microbial growth, broth dilution",,18 h,,12 µg/mL
CN(C)c1cc(CNCC2CCCCC2)c(O)c2c1C[C@H]1C[C@H]3[C@H](N(C)C)C(O)=C(C(N)=O)C(=O)[C@@]3(O)C(O)=C1C2=O,"microbial growth, broth dilution",,,,1 µg/mL
CCCCCCCCCc1nc2ccc(F)cc2c(=O)n1N,broth microdilution,RN6390B,,,> 100 µM
O=C1/C(=C(\O)C2CCCCC2)C(=O)[C@@]2(C(=O)OC3CCCCC3)CS[C@H](c3ccccc3)N12,broth dilution,MRSA,"with: Fe3+, Ca2+, Mg2+, Zn2+ at blood levels",,7.81 µg/mL
CC1CCN(Cc2cc(N(C)C)c3c(c2O)C(=O)C2=C(O)[C@]4(O)C(=O)C(C(N)=O)=C(O)[C@@H](N(C)C)[C@@H]4C[C@@H]2C3)CC1,,"RN4250, Tet K efflux",,,0.25 µg/mL
CCn1cc(C(=O)NCCNCCO)c(=O)c2cc(OC)c(OCc3cccc(F)c3)cc21,,ATCC 43300 MRSA,,≥80% growth inhibition,> 32 µg/mL
COC1CCN(Cc2cc(N(C)C)c3c(c2O)C(=O)C2=C(O)[C@]4(O)C(=O)C(C(N)=O)=C(O)[C@@H](N(C)C)[C@@H]4C[C@@H]2C3)CC1,,"MRSA 5, Tet M ribosome protection",,,1 µg/mL
CCCCN(CCCC)CC(O)COc1c2ccoc2c(OC)c2oc(CC)cc(=O)c12 (stereo not shown),"microbial growth, broth dilution",NCTC4163,19 h,,256 µg/mL
[2H]C([2H])([2H])Oc1ccc(-c2cc(C)nc(C)c2)cc1C(C)C#Cc1c(N)nc(N)nc1CC (racemic),broth microdilution,ATCC 43300,"18 h, 37 °C",,0.312 µg/mL
CN(C)c1cc(CNCCC(C)(C)C)c(O)c2c1C[C@H]1C[C@H]3[C@H](N(C)C)C(O)=C(C(N)=O)C(=O)[C@@]3(O)C(O)=C1C2=O,,"MRSA 5, Tet M, 50% human serum",,,16 µg/mL
C/C(=N\Nc1nc(-c2ccccc2)cs1)c1ccc2c(c1)sc1nc(=O)c(C#N)cn12,"microbial growth, broth dilution",,,,< 50 µg/mL
CCN(CC)CCn1nc(C23CC4CC(CC(C4)C2)C3)n(C)c1=S,two-fold dilution,IFO 3060,"24 h, 36 °C",,8 µg/mL
NC[C@@H]1O[C@H](O[C@H]2[C@@H](O)[C@H](O[C@@H]3[C@@H](O)[C@H](N)C[C@H](N)[C@H]3O[C@H]3O[C@H](CO)[C@@H](OCC(O)CO)[C@H](O)[C@H]3N)O[C@@H]2CO)[C@H](N)[C@@H](O)[C@@H]1O (stereo partly shown),broth microdilution,MRSA isolate AG 038,,,16 to 32 µg/mL
c1ccc(CN2CCOCCOCCN(CCCCCCCCCCCCCCN3CCOCCOCCN(CCCCCCCCCCCCCCN4CCOCCOCCN(Cc5ccccc5)CCOCCOCC4)CCOCCOCC3)CCOCCOCC2)cc1,microbial growth,MRSA,,,1.5 µM
CO[C@H]1[C@H](O)[C@@H](N)[C@@H](O[C@H]2[C@H](O[C@@H]3O[C@H](CO)[C@@H](O[C@H]4O[C@@H](CN)[C@@H](O)[C@H](O)[C@H]4N)[C@H]3O)[C@@H](O)[C@H](N)C[C@@H]2N)O[C@@H]1CO,broth microdilution,MRSA isolate AG 039,,,32 µg/mL
CNC(CC(C)C)C(=O)NC1C(=O)NC(CC(N)=O)C(=O)NC2C(=O)NC3C(=O)NC(C(=O)NC(C(=O)O)c4cc(O)cc(O)c4-c4cc3ccc4O)C(O)c3ccc(c(Cl)c3)Oc3cc2cc(c3OC2OC(CO)C(O)C(O)C2OC2CC(C)(NC(=O)CCCCCCCC[N+](C)(C)C)C(O)C(C)O2)Oc2ccc(cc2Cl)C1O (stereo not shown),agar dilution,MRSA clinical isolate MRSA4,,,64 µg/mL
CCn1[c]([Au-][Cl])[n+](CC)c2ccc(C(=O)OC)cc21,broth dilution,MRSA DSM 11822,"20 h, 37 °C",,2.2 µM
CNC(CC(C)C)C(=O)NC1C(=O)NC(CC(N)=O)C(=O)NC2C(=O)NC3C(=O)NC(C(=O)NC(C(=O)O)c4cc(O)cc(O)c4-c4cc3ccc4O)C(O)c3ccc(c(Cl)c3)Oc3cc2cc(c3OC2OC(CO)C(O)C(O)C2OC2CC(C)(NC(=O)CCCC[n+]3ccccc3)C(O)C(C)O2)Oc2ccc(cc2Cl)C1O (stereo not shown),"microbial growth, agar dilution",,clinical isolate,,64 µg/mL
COc1c(CC=C(C)C)c(O)cc2c1[C@@H]1Oc3c(ccc(O)c3CC=C(C)C)[C@@H]1CO2,,ATCC 25923,,,64 µg/mL

# A few entries again:
Compound,assay,test system,setting,scale,MIC
COc1c(CC=C(C)C)c(O)cc2c1[C@@H]1Oc3c(ccc(O)c3CC=C(C)C)[C@@H]1CO2,,ATCC 25923,,,64 µg/mL
CC1CCN(Cc2cc(N(C)C)c3c(c2O)C(=O)C2=C(O)[C@]4(O)C(=O)C(C(N)=O)=C(O)[C@@H](N(C)C)[C@@H]4C[C@@H]2C3)CC1,,"RN4250, Tet K efflux",,,0.25 µg/mL
CN(C)c1cc(CNCCC(C)(C)C)c(O)c2c1C[C@H]1C[C@H]3[C@H](N(C)C)C(O)=C(C(N)=O)C(=O)[C@@]3(O)C(O)=C1C2=O,,"MRSA 5, Tet M, 50% human serum",,,16 µg/mL
